Experimental data from different studies.
Every numbered part comes from another study and shows a few of its results, in no order. Positions count from the first letter of the parent shown.

Series 1
Target: CEBPA, bZIP domain (human)
Technique: DHFR protein complementation
Sample: yeast
Setting: single substitutions, most at no-binding floor
Baseline: wild-type JUN-FOS pair
Reading: higher = stronger binding
Parent: JUN, bZIP domain (human); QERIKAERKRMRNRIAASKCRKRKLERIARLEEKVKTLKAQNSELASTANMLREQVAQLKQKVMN; partner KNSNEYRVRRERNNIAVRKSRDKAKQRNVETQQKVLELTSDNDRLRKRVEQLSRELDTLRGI
Substitution	binding fitness
A57N	-1.45 natural log
Q55V	-1.5 natural log
A57V	-1.51 natural log
K39L	-1.42 natural log
E54G	-1.48 natural log
S43V	-1.45 natural log
N42G	-1.46 natural log
M51H	-1.21 natural log
A46Q	-1.42 natural log
N42Y	-1.5 natural log
A49M	-1.44 natural log
R30A	-1.42 natural log
N42Q	-1.47 natural log
K36A	-1.41 natural log
I28N	-1.45 natural log
V56W	-1.51 natural log
A29G	-1.45 natural log
L45Y	-1.31 natural log
I28K	-1.45 natural log
T37Y	-1.46 natural log
Q55C	-1.1 natural log
A49D	-1.46 natural log
E32T	-1.45 natural log
M51T	-1.33 natural log
T48C	-1.35 natural log

Series 2
Target: Histone acetyltransferase KAT6A, both winged helices, GST fusion (KAT6A, Homo sapiens, UniProt Q92794, residues 1-181)
Technique: protein binding microarray
Molecule type: double-stranded DNA, one strand shown
Sample: in vitro
Tested at: not given
Setting: 8-mer, flanks averaged, mean of 2 arrays, mostly near background
Baseline: not given
Reading: higher = stronger binding
Target sequence (chain): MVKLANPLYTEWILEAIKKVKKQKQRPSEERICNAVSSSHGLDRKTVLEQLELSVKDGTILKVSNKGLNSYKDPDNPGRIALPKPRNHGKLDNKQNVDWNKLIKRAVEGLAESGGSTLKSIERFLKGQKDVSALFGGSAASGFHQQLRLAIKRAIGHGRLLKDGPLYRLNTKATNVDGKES
Strand	E-score
CGCCTAGA	0.185
GAACGCGC	0.344
CTACTTTC	-0.0673
CCTGGAGC	-0.0746
AAAAAGCG	0.195
AAAGAATG	-0.0813
CAACTCAC	-0.247
ACGATTAT	0.0655
GAGTAAGA	-0.119
AAGTTCCT	0.0166
GGCGTTAA	0.204
GCCTTAGC	0.0484
CGGTAGAC	0.225
GACAACCA	-0.0625
GAATGACA	-0.0877
CCGCCAAG	0.152
ATGTTTGA	-0.186
AACCAAAT	-0.126
AATGGCAC	0.0155
ACAGGACT	-0.18
CCGCTGGA	0.197
ATTGGAAC	-0.0286
CCTAAATC	-0.112
TTCCGGAA	0.205
CGAACCTC	-0.0909

Series 3
Target: RNA binding protein fox-1 homolog 2, RRM domain, GST-SBP tag (RBFOX2, Homo sapiens, UniProt O43251-10, residues 100-194)
Technique: RNA Bind-n-Seq
Molecule type: RNA
Sample: in vitro
Tested at: 365 nM
Setting: natural RNA segment, single round, ends assumed
Baseline: no-protein control
Reading: higher = stronger binding
Shared flanks, not repeated: GGGAGUUCUACAGUCCGACGAUC … UGGAAUUCUCGGGUGCCAA
Target sequence (chain): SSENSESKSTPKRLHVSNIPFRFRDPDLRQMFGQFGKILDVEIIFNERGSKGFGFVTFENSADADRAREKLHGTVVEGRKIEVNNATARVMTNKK
Strand	RBNS enrichment (R)
AAAUUUUGGUUGGAUAUAUAGAGAAUUUUAUAAAUGUAUUGCCUUAGAAUUUCUGGGUGGAGACCCAACUACAAUGACAUUGUCAUGCCAGAACUAUAAAGAUAAUUAGA	4.28
GCACAGUUCAAAGUUCUGGCUUCUGGACUCUGCAGUCCAGGUCUCCCUUCUCCCACUUGCCUACCCUCAAUGCCACACUGUUUUUGAAGUGGCCCAUAACUUGAAGGAAA	0.436
GCCAUUUAGAAAAUCUUUUGGAUUUUCCUGUGGUUUAUGGCAAUAUGAAUGGAGCUUAUUACUGGGGUGAGGGACAGCUUACUCCAUUUGACCAGAUUGUUUGGCUAACA	0.675
CACUGUCAUAUAUUAGAUCCUUGUAUUAGUCCAUCCAUUAAUAUUAGUUCUAUUCGUGGUGCUAGGUAGCUUGACAGGUAUGAUAUGCAUAAGUCAUAGCUCUAUUCUUA	0.602
GUCCAUCGGGCUGGCCCCAGCCCAUCUGCUGGCAUCAGUACCUGGUGUUGGGACAGCAGGAUAGGGUUCUAAAGGUGGUUUUCUAUCCAAACGACCAAAAAACCAACAGU	0.283
ACUCGGUACCUGGUGUUAACUGGAGCCCUGUUUACAAGGCGGAGUCGGGUCUUGCUGACUUCUCUUCACUUGAGGUCACAUUUUUCCCCCGUGGGGAAAUAAACUGACUU	0.231
CUUGAACUCUGGGGCUUUAAUUCCACUGUUUAAUUUUCAGGUACCACAGCAGCAAAGCACAGAGUGUGACCUUUUUCAUGUCUGAGCUGAUUCUGUUUGCUCCACGUGCC	0.241
AGCUCCAGGCUCUGACUUCACCGUCACCCUCUGAAGAGCUAUGAUCAUGCUGGUGAGAAAGUAUGAUUUCCCAACCUCUGCUUGUGGUGUUGGAAGGAGUGGCCUGGCCA	1.18
CAUAAGGUUAAACAAACUAGGUGCUUGUAAAUAAUUUAUUACAGUUUACUCUAUCGCAUUUCUGUAACAUGAAAUGCAUGCCCUUCUUCAGGGGAAGACUGUGGUCAAGU	0.456
ACCGAUGUAUGAUGUGAAAAGGAAACAGAUGAUGAUGUGUAUAAUAAAAUUGUUACCAUUCACUCAGACUUUAUUAGUUAGGCCAUGUGUGUAUUCACCAUGGAUUAGUU	0.794
AGAACUGCCUUGGUGGACACCAGCCUCGCCCUGUCUUUAUUUCCUGAAUGGUUUGUGAACUUGCUCACCUGGACCACUGUAUCCUGCCACUGUCCUUCCUGGUCUCGCAC	0.645
GCAAAAUGUCUGUGGAGAUGGAUGGACUGAAAGAGCCGGAUUCCUCACACACAGGGGCAGCCAGUGCUUCUGGGGCCCUGGUUGGGGUUCACCCGAGAUGCCCAGGGGUA	0.548

Series 4
Target: Sal-like protein 4, full length isoform B (SALL4, Homo sapiens, UniProt Q9UJQ4-2, residues 1-616)
Technique: universal PBM
Molecule type: double-stranded DNA, one strand shown
Sample: in vitro
Tested at: not given
Setting: 8-mer, flanks averaged, mean of replicates
Reading: higher = stronger binding
Target sequence (chain): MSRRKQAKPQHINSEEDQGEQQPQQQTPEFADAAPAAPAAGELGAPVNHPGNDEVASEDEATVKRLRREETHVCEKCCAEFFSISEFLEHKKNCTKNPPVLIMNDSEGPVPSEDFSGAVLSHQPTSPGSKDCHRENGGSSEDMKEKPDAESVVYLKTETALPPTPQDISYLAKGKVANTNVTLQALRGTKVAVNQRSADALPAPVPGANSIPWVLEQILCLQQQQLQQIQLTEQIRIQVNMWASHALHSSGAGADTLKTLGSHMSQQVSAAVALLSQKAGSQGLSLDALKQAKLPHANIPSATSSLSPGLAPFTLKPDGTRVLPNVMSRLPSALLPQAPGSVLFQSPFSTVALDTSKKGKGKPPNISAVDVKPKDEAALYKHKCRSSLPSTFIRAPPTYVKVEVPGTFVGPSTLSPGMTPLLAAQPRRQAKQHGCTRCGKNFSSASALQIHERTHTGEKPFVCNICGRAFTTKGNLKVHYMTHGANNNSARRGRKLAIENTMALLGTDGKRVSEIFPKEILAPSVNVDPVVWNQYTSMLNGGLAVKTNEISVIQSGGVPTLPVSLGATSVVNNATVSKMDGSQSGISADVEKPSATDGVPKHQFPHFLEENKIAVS
Strand	E-score
CCCATGAG	-0.113
AAATCAAC	0.111
AATCCCCC	-0.0828
GAGGCGCC	-0.335
ATATGGAC	0.252
ATGATCGG	0.103
GATCGGAC	-0.113
CATCCCCA	-0.168
AAGAAAAC	0.0604
GCCAGAGC	-0.262
GGTCACAC	-0.24
ATGTTTAA	0.283
GGATATCA	0.132
AAGCCTAC	0.0241
TCAGCCCA	-0.202
GATCGAAA	0.0879
ACTACCCC	-0.0442
AGCTTATC	-0.051
AGGTAGAT	0.0137
CAACGCCC	-0.203
GGCTCTAC	-0.205
AAGACTGC	-0.162
AGAGGCTG	-0.201

Series 5
Target: Interferon regulatory factor 3, full length, phosphomimetic (IRF3, Homo sapiens, UniProt Q14653, residues 1-427, S386D/S396D/S398D/S402D/T404D/S405D)
Technique: protein-binding microarray
Molecule type: double-stranded DNA, one strand shown
Sample: in vitro
Tested at: 2540 nM top
Setting: 60-bp whole probe
Added: salmon DNA 0.4 mg/ml
Baseline: random background probes
Reading: higher = stronger binding
Shared flanks, not repeated: GCCTAGCAC … GTCTTGATTCGCTTGACGCTGCTG
Construct (chain): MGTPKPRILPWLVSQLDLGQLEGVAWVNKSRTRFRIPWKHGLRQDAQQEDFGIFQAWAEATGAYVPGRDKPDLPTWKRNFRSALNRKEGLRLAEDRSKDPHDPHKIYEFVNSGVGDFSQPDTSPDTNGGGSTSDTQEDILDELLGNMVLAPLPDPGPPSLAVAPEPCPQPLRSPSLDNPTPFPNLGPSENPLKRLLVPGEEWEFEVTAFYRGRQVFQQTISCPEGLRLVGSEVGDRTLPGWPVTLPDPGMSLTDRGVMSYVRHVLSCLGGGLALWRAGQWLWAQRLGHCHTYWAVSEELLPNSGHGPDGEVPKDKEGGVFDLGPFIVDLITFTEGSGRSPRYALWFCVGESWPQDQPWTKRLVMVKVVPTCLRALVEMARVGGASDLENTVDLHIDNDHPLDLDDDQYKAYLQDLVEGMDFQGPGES
Strand	fitted relative affinity [z-score]
TTAGGTATCGTACTGCTTTAGTGCTAG	0.926
GACGGTTTCGTTTCCGGGACGTGCTAG	8.52
CACGATTTCGGGACTGGAGACGTGCTA	1.38
TTAGGACTGGGAATCGGTTAGTGCTAG	-0.447
GACGGTTTCCCTTCCCTGACGTGCTAG	8.5
CCCTAATTCTGATTGGATAAGTGCTAG	1.22
TTAGGTTTCCTTCTCGTTTAGTGCTAG	10.1
GACGAACTGGGGTATCGAGAGGTGCTA	-0.472
GACGGTTCCCTTTTCCTGTCGTGCTAG	6.68
GACGAACTGAGTTTGGAGACGTGCTAG	-0.24
GTAGGTTTCGGGTATCGGTTAGTGCTA	4.62
TGAACTTCGGCCTCTAGGTTTGTGCTA	-0.678
TCAATTTCCACTTTCTTACTGTGCTAG	3.31
GAAGACTTTGGTTTGTACACGTGCTAG	-0.552
GACGGACTGGACTATAGGGACGTGCTA	-0.666
GACGAACTTAGTCTCGAGACGTGCTAG	-0.0342
GACGATATCGGATATCGAGACGTGCTA	0.767
TTAGGACTGGACTTTCCGTTAGTGCTA	0.588
GACAATTTGGAAACCGAGTGGTGCTAG	1.3
TTAGGAGTGGGTTTCGGTTAGTGCTAG	3.33
GACGGTTTCCTGATCCTGACGTGCTAG	4.23
GTTTGTGTGTGTATGTGGTCGTGCTAG	0.0769
ATTTTTTAGCTTCTCAATTAGTGCTAG	1.06
TCATCCATGGGTATGGCACTGTGCTAG	-0.368
ATAGGTTTCCTTATCCTTTAGTGCTAG	8.19

Series 6
Target: CCND3, cyclin fold, Cln2 fusion (human)
Technique: yeast growth competition, sequencing
Sample: yeast
Setting: weak parent motif
Baseline: not given
Reading: higher = stronger binding
Parent: MICAL3 docking peptide (human); LQLRRQLSFSEDS; partner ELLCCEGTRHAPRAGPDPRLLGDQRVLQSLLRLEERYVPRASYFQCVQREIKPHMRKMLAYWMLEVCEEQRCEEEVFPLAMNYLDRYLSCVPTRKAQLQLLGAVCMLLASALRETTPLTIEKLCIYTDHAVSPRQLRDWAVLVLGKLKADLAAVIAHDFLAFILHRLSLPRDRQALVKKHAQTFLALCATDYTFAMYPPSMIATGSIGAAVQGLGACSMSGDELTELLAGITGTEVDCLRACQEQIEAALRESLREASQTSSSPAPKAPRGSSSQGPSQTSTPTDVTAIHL
Substitution	normalised enrichment score
LQLRRQLSFSEHS [D12H]	-0.226
LQLRRQLVFSEDS [S8V]	-0.254
LQLRRQKSFSEDS [L7K]	0.142
LILRRQLSFSEDS [Q2I]	-0.183
LQLRRQLSFSWDS [E11W]	-0.0733
LQLRRTLSFSEDS [Q6T]	-0.0449
LQLRRQLSCSEDS [F9C]	0.313
LQLRRQLSFDEDS [S10D]	-0.132
LCLRRQLSFSEDS [Q2C]	0.318
LQLRSQLSFSEDS [R5S]	-0.0663
LQLWRQLSFSEDS [R4W]	0.547
LRLRRQLSFSEDS [Q2R]	-0.254
LQSRRQLSFSEDS [L3S]	0.387
LKLRRQLSFSEDS [Q2K]	0.188
LNLRRQLSFSEDS [Q2N]	0.272
LQLRRQLSFLEDS [S10L]	0.343
LQHRRQLSFSEDS [L3H]	-0.106
LQLRRQLSFSENS [D12N]	-0.019
LALRRQLSFSEDS [Q2A]	-0.387
LQLRMQLSFSEDS [R5M]	-0.0483
LQQRRQLSFSEDS [L3Q]	-0.0511
LMLRRQLSFSEDS [Q2M]	0.041
LQLRRQFSFSEDS [L7F]	-0.274
LQLRRQLSFSEQS [D12Q]	0.311
LQLRRQLDFSEDS [S8D]	0.0157

Excerpt of the above (series 2):
Strand	E-score
GGCGTTAA	0.204
GCCTTAGC	0.0484
CGGTAGAC	0.225
GACAACCA	-0.0625
GAATGACA	-0.0877
CCGCCAAG	0.152
ATGTTTGA	-0.186
AACCAAAT	-0.126
AATGGCAC	0.0155
ACAGGACT	-0.18
CCGCTGGA	0.197
ATTGGAAC	-0.0286
CCTAAATC	-0.112
TTCCGGAA	0.205
